Assay results gathered from unrelated publications.
Parts stem from different laboratories: compare values within a part only.

Sample 1
Cell line: HEK-293T
Effect on: pseudovirus infection
Method: FDA-approved drug library screen
Organism: VSV pseudotyped with SARS-CoV-2 spike
Tested at: 10 µM
Time: 16 h
Baseline: vehicle-treated
For CC(C)N(CCC(C(N)=O)(c1ccccc1)c1ccccn1)C(C)C (centres unmarked), the GFP-positive cells was 92.1%.
With CCCCCCCCCCCCCCCCCCCCCCO the GFP-positive cells was 77.7%.
CC(=O)N1CCN(c2ccc(OCC3COC(Cn4ccnc4)(c4ccc(Cl)cc4Cl)O3)cc2)CC1 (centres unmarked) has a GFP-positive cells of 67.5%.

Sample 2
Target: Replicase polyprotein 1ab, main protease (rep, Severe acute respiratory syndrome coronavirus 2, UniProt P0DTD1)
Effect on: enzyme activity
Mode: inhibitor
Tested at: 20 µM
Notes: primary screen
With CC(C)/N=c1\cc2n(-c3ccc(Cl)cc3)c3ccccc3nc-2cc1Nc1ccc(Cl)cc1 the inhibition was 25%.
The inhibition of CC(C)(C)OC(=O)NCCc1nnc(S(=O)(=O)Cc2ccc(Cl)cc2Cl)o1 is reported as 61.5%.
With NCc1ccccc1CC(=O)N[C@@H]1C(=O)N2C(C(=O)O)=C(CSc3nnnn3CC(=O)O)CS[C@H]12 the inhibition was 40.2%.
COc1ccc2[nH]c3c(S)ncnc3c2c1 has an inhibition of 69.9%.

Sample 3
Target: Replicase polyprotein 1ab, nsp13 helicase (rep, Severe acute respiratory syndrome coronavirus 2, UniProt P0DTD1)
Mode: inhibitor
Tested at: 20 µM
C[C@]12CC[C@H](O)CC1=CC[C@@H]1[C@@H]2CC[C@]2(C)C(n3cnc4ccccc43)=CC[C@@H]12 gave an inhibition of -4.36%.
For COc1ccc(COc2cc3oc(=O)c4cc(C(C)O)ccc4c3cc2OC)cc1 (centres unmarked), the inhibition was 5.02%.
For COCCOC(=O)C1=C(C)NC(C)=C(C(=O)OC/C=C/c2ccccc2)C1c1cccc([N+](=O)[O-])c1 (centres unmarked), the inhibition was 4.26%.
O=C(O)CSCC(=O)NC1CCSC1=O (centres unmarked) has an inhibition of 5.13%.
With FC(F)(F)C(F)(F)C(F)(F)N(C(F)(F)C(F)(F)C(F)(F)F)C(F)(F)C(F)(F)C(F)(F)F the inhibition was 1.81%.
For C=CCNc1c(O)cc2c(O)c1C[C@@H](C)C[C@H](OC)[C@H](O)[C@@H](C)/C=C(\C)[C@H](OC(N)=O)[C@@H](OC)/C=C\C=C(/C)C(=O)N2, the inhibition was 8.14%.
The inhibition of O=C(O)c1cc(=O)[nH]c(=O)[nH]1 is reported as 6.95%.
With CC(C)Nc1cc(-c2c[nH]c(C(=O)N[C@H](CO)c3cccc(Cl)c3)c2)c(Cl)cn1 the inhibition was 7.46%.
With Cc1ccc(-c2ncc[nH]2)cc1NC(=O)c1ccc(OCc2ccccn2)cc1 the inhibition was 4.53%.
CC(C)(O)CC[C@@H](O)[C@](C)(O)[C@H]1CC[C@@]2(O)C3=CC(=O)[C@@H]4C[C@@H](O)[C@@H](O)C[C@]4(C)[C@H]3CC[C@]12C has an inhibition of -2.3%.
C/C=C(/C)C(=O)O[C@H]1C(C)=C[C@]23C(=O)[C@@H](C=C(CO)[C@@H](O)[C@]12O)[C@H]1[C@@H](C[C@H]3C)C1(C)C gave an inhibition of 0.95%.
The inhibition of COc1ccc2cc1Oc1cc3c(cc1OC)CC[N+](C)(C)[C@H]3Cc1ccc(cc1)Oc1c(OC)c(OC)cc3c1[C@@H](C2)[N+](C)(C)CC3 is reported as -1.11%.
CC[C@@H](C)Nc1cc(C(=O)N[C@H]2C[C@H]3CC[C@@H](C2)N3c2ccc(C(=O)C3CC3)cn2)c(C)cc1C(N)=O gave an inhibition of 5.69%.
For CCNC(=O)CCC/C=C\C[C@@H]1[C@@H](/C=C/[C@@H](O)CCc2ccccc2)[C@H](O)C[C@@H]1O, the inhibition was -2.05%.
CCOC(=O)Nc1cc2c(c(N)n1)N=C(c1ccccc1)[C@H](C)N2 has an inhibition of 7.38%.
The inhibition of CN1CCN(CCCN2c3ccccc3Sc3ccc(C(F)(F)F)cc32)CC1 is reported as 7.54%.
CC(C)(C)c1ccc(C(=O)Nc2cn3cc(-n4ccnc4)ccc3n2)cc1 gave an inhibition of 5.87%.
N[C@H]1CCN(O)C1=O gave an inhibition of 5.33%.
The inhibition of Clc1ccc(Cn2c(CN3CCCC3)nc3ccccc32)cc1 is reported as -1.06%.
For COc1ccccc1N1CCN(CCCCN2C(=O)CCC2=O)CC1, the inhibition was 4.42%.
O=C(O)[C@H](O)[C@@H](O)[C@H](O[C@@H]1O[C@H](CO)[C@H](O)[C@H](O)[C@H]1O)[C@H](O)CO has an inhibition of -5.15%.
With COC(=O)N/N=C/c1c[n+]([O-])c2ccccc2[n+]1[O-] the inhibition was 3.56%.
The inhibition of CC(C)C[C@H](NC(=O)CNC(=O)c1cc(Cl)ccc1Cl)B1OC(=O)CC(CC(=O)O)(C(=O)O)O1 (some centres unmarked) is reported as 4.82%.
c1ccc2c(CC3=NCCN3)cccc2c1 gave an inhibition of 2.27%.
Nc1nc(NC[C@H]2CC[C@H](CNS(=O)(=O)c3cccc4ccccc34)CC2)nc2ccccc12 gave an inhibition of 15.4%.

Sample 4
Target: Ras GTPase-activating protein-binding protein 1, RRM domain (G3BP1, Homo sapiens, UniProt Q13283)
UniProt Q13283, sequence (whole entry, looked up): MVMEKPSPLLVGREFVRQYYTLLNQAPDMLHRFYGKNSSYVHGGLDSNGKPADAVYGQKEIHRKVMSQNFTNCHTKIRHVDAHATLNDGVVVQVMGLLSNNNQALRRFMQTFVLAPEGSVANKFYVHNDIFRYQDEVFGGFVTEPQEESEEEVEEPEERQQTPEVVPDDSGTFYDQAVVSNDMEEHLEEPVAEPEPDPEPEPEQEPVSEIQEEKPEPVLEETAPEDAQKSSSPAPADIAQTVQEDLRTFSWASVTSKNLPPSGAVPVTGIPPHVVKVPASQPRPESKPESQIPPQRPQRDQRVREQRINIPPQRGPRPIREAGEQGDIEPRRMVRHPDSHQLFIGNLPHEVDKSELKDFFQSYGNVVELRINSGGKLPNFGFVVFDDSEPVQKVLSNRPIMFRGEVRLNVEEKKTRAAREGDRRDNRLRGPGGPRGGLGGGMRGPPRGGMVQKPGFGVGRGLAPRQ
Method: RNA Bind-n-Seq
Molecule type: RNA
Medium: in vitro
Tested at: 1 µM
Notes: whole 134-nt RNA, ends assumed
Added: 150 mM KCl
Baseline: input library
Direction: higher = stronger binding
With `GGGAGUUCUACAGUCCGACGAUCCCUCAAGUCCUGUGCUACACAUCGUAUGUACCGAAUCGGGGAGGGGAGGAGGGAAAGUAUUAUGUUACGCCGUUCGGAUCUGCACUUCCAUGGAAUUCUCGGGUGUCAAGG` the log2 enrichment was -0.0241.
`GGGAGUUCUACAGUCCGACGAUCUCCUGUGCUACACAUCGUAUGUACCGAAUCGGGGUUUUUUGGGUUUUUUGGGUUUUUUGGAAAGUAUUAUGUUACGCCGUUCGGAUCUGCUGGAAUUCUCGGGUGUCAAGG` gave a log2 enrichment of -0.153.
For `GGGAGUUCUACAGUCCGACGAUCUAGGUGUUAUCUUCAGGAAGGCACACUGGACCUGCUAAAUUAACAAAUGGAAAGAAAGCGUAAGUACUUGAAGACGUUUACAACUUCAGAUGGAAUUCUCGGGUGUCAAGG`, the log2 enrichment was -0.307.
With `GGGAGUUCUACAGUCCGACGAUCUUACAGAUGUAGAGCUAAAACGACUGAAGGAUGCUUUCAAGAGGACCUGUGGACUCUCAUAUUACAUGGGCCAGCACUGCUUCAUCCGGGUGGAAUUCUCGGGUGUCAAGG` the log2 enrichment was 0.188.
The log2 enrichment of `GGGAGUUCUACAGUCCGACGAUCUCCUGUGCUACACAUCGUAUGUACCGAAUCGGGGCCCCCGGGCCCCCGGGGCCCCCGGGGAAAGUAUUAUGUUACGCCGUUCGGAUCUGCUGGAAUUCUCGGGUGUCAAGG` is reported as -0.8.
The log2 enrichment of `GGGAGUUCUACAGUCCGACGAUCUAACUUUAGAGGAGGAGCUGAUGGAUAUGGCAGUGGACGUGGAUUUGGGGAUGGCUAUAAUGGGUAUGGAGGAGGACCUGGAGGUGGCAAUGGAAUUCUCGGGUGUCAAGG` is reported as -0.662.
`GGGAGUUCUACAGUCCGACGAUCUCAAGUCCUGUGCUACACAUCGUAUGUACCGAAUCGGGCCCGGCCCGGGCCCGGAAAGUAUUAUGUUACGCCGUUCGGAUCUGCACUUCCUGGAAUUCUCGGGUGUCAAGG` gave a log2 enrichment of -0.562.
For `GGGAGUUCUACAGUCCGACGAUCUGCCUGUAUGGAGUGGAAUGAAUGUUGCUGGUGUCUCUCUGAAGACUCUGCACCCAGAUUUAGGGACUGAUAAAGAUAAGGAACAGUGGAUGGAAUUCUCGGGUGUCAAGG`, the log2 enrichment was 0.0841.

Sample 5
Target: Sal-like protein 4, full length isoform B (SALL4, Homo sapiens, UniProt Q9UJQ4-2, residues 1-616)
Method: universal PBM
Molecule type: double-stranded DNA, one strand shown
Medium: in vitro
Tested at: not given
Notes: 8-mer, flanks averaged, mean of replicates
Direction: higher = stronger binding
With `CCAGATGG` the E-score was -0.308.
The E-score of `ATCTCTTC` is reported as 0.12.
`ACATCACG` gave an E-score of 0.0409.
The E-score of `CGATTGTA` is reported as 0.175.
With `ATTCCTCC` the E-score was -0.00252.
For `AGCTCTAG`, the E-score was -0.0451.
The E-score of `TAAAAAAA` is reported as 0.32.
With `TGATCCCA` the E-score was -0.0979.

Sample 6
Target: Interferon regulatory factor 5, full length, phosphomimetic (IRF5, Homo sapiens, UniProt Q13568-2, residues 1-514, S451D/S453D/S456D/S462D)
Method: protein-binding microarray
Molecule type: double-stranded DNA, one strand shown
Medium: in vitro
Tested at: 940 nM top
Notes: 60-bp whole probe
Added: salmon DNA 0.4 mg/ml
Baseline: random background probes
Direction: higher = stronger binding
Constant ends, left off below: GCCTAGCAC … GTCTTGATTCGCTTGACGCTGCTG
`GACGAACTGGGGACTGTAGACGTGCTA` — result for “fitted relative affinity”: -0.0205 z-score.
`TTAGGTATCGGTCTCGGTCAGTGCTAG` — result for “fitted relative affinity”: 10.2 z-score.
Under “fitted relative affinity”, `TTAGATATCGGTTATCGATTAGTGCTA` is recorded as 1.3 z-score.
`GTCGGTTTCGGTATCGGGACGTGCTAG` — result for “fitted relative affinity”: 16.3 z-score.
For `GGTCCCACCTCTTGGTGGGAGTGCTAG`, “fitted relative affinity” read -0.632 z-score.
`TTAGAACTGAGACTGGCTTAGTGCTAG` — result for “fitted relative affinity”: -0.531 z-score.
`TCAAACCCCATTCTCAGACTGTGCTAG`: “fitted relative affinity” 0.954 z-score.
`GACGGTTTCCTTTCCCTCACGTGCTAG`: “fitted relative affinity” 1.77 z-score.

Some of these lines once more (sample 5):
For `AGCTCTAG`, the E-score was -0.0451.
`ACATCACG` gave an E-score of 0.0409.
With `ATTCCTCC` the E-score was -0.00252.
The E-score of `ATCTCTTC` is reported as 0.12.
The E-score of `CGATTGTA` is reported as 0.175.
With `CCAGATGG` the E-score was -0.308.
The E-score of `TAAAAAAA` is reported as 0.32.
With `TGATCCCA` the E-score was -0.0979.
